Assay results from different studies.
Parts stem from different laboratories: compare values within a part only.

Sample 1 — technique: RNA Bind-n-Seq; form: RNA; matrix: in vitro; tested at: 365 nM; relative to: no-protein control; reading: higher = stronger binding
Target: RNA binding protein fox-1 homolog 2, RRM domain, GST-SBP tag (RBFOX2, Homo sapiens, UniProt O43251-10, residues 100-194)
Notes: natural RNA segment, single round, ends assumed
Constant ends, left off below: GGGAGUUCUACAGUCCGACGAUC … UGGAAUUCUCGGGUGCCAA
Residues (chain): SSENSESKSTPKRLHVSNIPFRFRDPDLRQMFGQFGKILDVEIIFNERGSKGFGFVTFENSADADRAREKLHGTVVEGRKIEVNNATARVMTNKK
Strand	RBNS enrichment (R)
AGUGUAUAACAUGAAGAUAACAUUUUGUCUUUGACCACUGUCUUUUGAAUGGGCCCACAGUGUUUAUGUACUCUUAACAACUCACAGAAUAAUACAUGUUCACUUUAUUU	0.439
UUGGUUCUUUUUUCCUUUUUUAGGAAAAACAAAACAACAGACUUCAUCCUUAGGUUUUCUCAAGAUUUAAGUGAACACAUUUACACAUAUCAAUUUCUUAAAGAACACAA	0.426
UCUGGCUUCUGCAGGGGAAAUUUCAAGGCCACUGGCGUGGACCAUCUGGGUGUCCUCAGCCCCUGUGGGGCAGCCAAGUUCCUGAUAGCACUUGUGCCUCAGCCCCUCAC	0.301
AUUUCAGGAGGACUUAAUGCUAUUUAUGUUGUGCCUCUGCAGGCAAAGCCCUUAAUAAAUAUUUUACAUCCUUUCUAAUGACAAUGAAUGGAAUUAAUCACUCAACAGGU	0.369
GACUCUUUACUCAGGUGCAUGGUUACAGCCCACAGGGAGGCAUGGAGUGCCAUGGAAGGAUUCGCCACUACCCAGACCUUGUUUUUUGUUGUAUUUUGGAAGACAGGUUU	2.14
CAAAACCUUAAAAAAGAGAGAGAAAAAUAAACAAUCUUUGAAGAAUUUCUGAAACUGUUUACAAGGAAUUUUGAAAAACAGGGAUGUUUAAAUGAUGCCGGCUCUGUUUU	0.709
AGUUCUCUCUUCUUUUCCUCAGGUAGGACAGCUCUAGCAUUUUCUUAAUCAGGAAUAUUGUGGUAAGCUGGGAGUAUCACUCUGGAAGAAAGUAACAUCUCCAGAUGAGA	0.195
UCAUCACCCUCCUUGAGGUUACUGUGCAGUUUCAACCAGCAUUUUAUCCUAGUGAGGUCAUUAUCAGGAGUUGCCAUAUCAUCUCUCCAGUACCUAACAUUUCUCAUCCA	0.379

Sample 2 — technique: protein binding microarray; form: double-stranded DNA, one strand shown; matrix: in vitro; tested at: not given; relative to: not given; reading: higher = stronger binding
Target: Histone acetyltransferase KAT6A, winged helix 1, GST fusion (KAT6A, Homo sapiens, UniProt Q92794, residues 1-85)
Notes: 8-mer, flanks averaged, mean of 2 arrays, mostly near background
Residues (chain): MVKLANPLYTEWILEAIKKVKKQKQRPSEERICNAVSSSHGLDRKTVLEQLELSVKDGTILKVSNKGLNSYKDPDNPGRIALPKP
Strand	E-score
TATTGGGA	-0.168
AACCGACA	-0.0462
GAAAGGTA	-0.0841
CGGACTTA	0.038
ACAATAGT	-0.0473
CTGTGTAA	-0.144
AGGTCAAA	-0.137
CCAACCCA	-0.266
CCCACGAC	-0.0914
CGGATAGA	0.169
CCTGCGCC	0.176
AGGGTGGG	-0.202
AAGCAGTA	-0.0375
GGGCATAA	-0.142
GATCGATC	-0.105
CGACGTCA	0.0848
CGATCCTA	0.00531
AATAAGGA	-0.215
GCGAATCC	0.0581
CCAGGGAG	-0.269
CAGGGTGA	-0.191
CCGACTGA	0.0278

Sample 3 — technique: RNA Bind-n-Seq; form: RNA; matrix: in vitro; tested at: 1 µM; notes: whole 134-nt RNA, ends assumed; together with: 150 mM KCl; relative to: input library; reading: higher = stronger binding
Target: Ras GTPase-activating protein-binding protein 1, RRM domain (G3BP1, Homo sapiens, UniProt Q13283)
UniProt Q13283, sequence (whole entry, looked up): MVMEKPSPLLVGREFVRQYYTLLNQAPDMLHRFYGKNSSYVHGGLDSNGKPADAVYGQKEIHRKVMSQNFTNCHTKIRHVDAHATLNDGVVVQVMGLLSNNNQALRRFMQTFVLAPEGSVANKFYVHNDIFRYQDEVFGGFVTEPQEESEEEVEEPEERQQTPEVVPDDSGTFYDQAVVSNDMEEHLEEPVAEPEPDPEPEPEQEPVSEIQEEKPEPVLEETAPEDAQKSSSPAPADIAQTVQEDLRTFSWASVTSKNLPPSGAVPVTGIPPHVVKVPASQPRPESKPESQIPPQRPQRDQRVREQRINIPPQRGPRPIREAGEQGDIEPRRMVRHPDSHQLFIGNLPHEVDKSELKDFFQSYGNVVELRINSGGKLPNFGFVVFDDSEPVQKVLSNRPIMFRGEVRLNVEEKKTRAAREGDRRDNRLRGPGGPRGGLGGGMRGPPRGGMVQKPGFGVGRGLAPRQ
Constant ends, left off below: GGGAGUUCUACAGUCCGACGAUC … UGGAAUUCUCGGGUGUCAAGG
Strand	log2 enrichment
UAACUUUAGAGGAGGAUCUGAUGGAUAUGGCAGUGGACGUGGAUUUGGGGAUGGCUAUAAUGGGUAUGGCGGAGGACCUGGAGGUGGCAA	-0.373
UGGCCCUGGUGGCAUGCGGGGAGGAAGAGGUGGCCUCAUGGAUCGUGGUGGUCCCGCUGGAAUGUUCAGAGGUGGCCGUGGUGGAGACAG	0.963
UGGGAGGGGGAUUUUGUUUAUUUUUUUAGCUCAUUUCCAGGGGUGGGAAUUUUUUUUUAAUAUGUGUCAUGAAUAAAGUUGUUUUUGAAA	1.99
CUGUGCUACACAUCGUAUGUACCGAAUCGGGGAAAAAGGGGUUUUUGGGGAAAAAAAGGGGAAAGUAUUAUGUUACGCCGUUCGGAUCUG	1.16
UUGGACUUGGAGCAUCUGCUCAGUGAGUCUCCAGAAGGAAGUCCCUUCCGAGAUAUGGAUGAUGGAAGUGAUUCCCUUGGGGUGGGAUUG	-0.316
CAAGUCCUGUGCUACACAUCGUAUGUACCGAAUCGGGUGGGUUUGGGUUUUUGGGAAAGUAUUAUGUUACGCCGUUCGGAUCUGCACUUC	0.632
AGUCCUGUGCUACACAUCGUAUGUACCGAAUCGGGUUUUUUUGGGAAAAAGGGAGGGAAAGUAUUAUGUUACGCCGUUCGGAUCUGCACU	0.413
GCAGGAAGUAAAAACAAAUGGAAAUGCUUCGGAUAGUGGCAGGGGUGGGGGUUGCUAAGGAAAGGGUGGGAUGGGACUGGGUAAAGAGUU	0.969
CCUGUGCUACACAUCGUAUGUACCGAAUCGGGCCCCCCGGGCCCCCCGGGCCCCCCGGGGAAAGUAUUAUGUUACGCCGUUCGGAUCUGC	-0.647

Sample 4 — technique: protein-binding microarray; form: double-stranded DNA, one strand shown; matrix: in vitro; tested at: 940 nM top; notes: 60-bp whole probe; together with: salmon DNA 0.4 mg/ml; relative to: random background probes; reading: higher = stronger binding; constant ends, left off below: GCCTAGCAC … GTCTTGATTCGCTTGACGCTGCTG
Target: Interferon regulatory factor 5, full length, phosphomimetic (IRF5, Homo sapiens, UniProt Q13568-2, residues 1-514, S451D/S453D/S456D/S462D)
Strand	fitted relative affinity [z-score]
TTAGATCTCAGACTGGTTTAGTGCTAG	-0.298
GTGAGTTTGACATCTTCATCAGTGCTA	-0.0179
TCGTGGATTGCGACCCCTAGGTGCTAG	-0.439
GACGGACTGCTACTGCTGAAGTGCTAG	-0.648
TCATTTTTCTAGTCCAGACTGTGCTAG	0.626
TCAGAAATTCCTCTGAGACTGTGCTAG	-0.422
GATGATCTCAGTATCGAGACGTGCTAG	1.97
GACAGTATCGGGTTTCGGGACGTGCTA	5.68
AAATCTAAAAAGTCTCTGGGAGTGCTA	-0.244
TTAGGTTTCGGTATCGGTAAGTGCTAG	15.4
GACGATCTCAATTTCGAGACGTGCTAG	0.548
AATGTTTTGTTTTTCATTATGTGCTAG	1.15
TTAGGTATCGGTTTCGGTGAGTGCTAG	11.7
GATGGTATTTGCCTGTGGTCGTGCTAG	0.117
TCAGTGCTCATTTTTTTACTGTGCTAG	0.186
GGATGAGCAAGGGGGCCTCGGTGCTAG	-0.0525
TCATTTTTTTTAATTGAACTGTGCTAG	0.844
TTTTTTTTTTTTTTTACTTCGTGCTAG	1.22
GACGCTCTCGGTCTCGGGACGTGCTAG	4.22

Repeated from above (sample 1):
Strand	RBNS enrichment (R)
AGUGUAUAACAUGAAGAUAACAUUUUGUCUUUGACCACUGUCUUUUGAAUGGGCCCACAGUGUUUAUGUACUCUUAACAACUCACAGAAUAAUACAUGUUCACUUUAUUU	0.439
UUGGUUCUUUUUUCCUUUUUUAGGAAAAACAAAACAACAGACUUCAUCCUUAGGUUUUCUCAAGAUUUAAGUGAACACAUUUACACAUAUCAAUUUCUUAAAGAACACAA	0.426
GACUCUUUACUCAGGUGCAUGGUUACAGCCCACAGGGAGGCAUGGAGUGCCAUGGAAGGAUUCGCCACUACCCAGACCUUGUUUUUUGUUGUAUUUUGGAAGACAGGUUU	2.14
AUUUCAGGAGGACUUAAUGCUAUUUAUGUUGUGCCUCUGCAGGCAAAGCCCUUAAUAAAUAUUUUACAUCCUUUCUAAUGACAAUGAAUGGAAUUAAUCACUCAACAGGU	0.369
CAAAACCUUAAAAAAGAGAGAGAAAAAUAAACAAUCUUUGAAGAAUUUCUGAAACUGUUUACAAGGAAUUUUGAAAAACAGGGAUGUUUAAAUGAUGCCGGCUCUGUUUU	0.709
AGUUCUCUCUUCUUUUCCUCAGGUAGGACAGCUCUAGCAUUUUCUUAAUCAGGAAUAUUGUGGUAAGCUGGGAGUAUCACUCUGGAAGAAAGUAACAUCUCCAGAUGAGA	0.195
UCUGGCUUCUGCAGGGGAAAUUUCAAGGCCACUGGCGUGGACCAUCUGGGUGUCCUCAGCCCCUGUGGGGCAGCCAAGUUCCUGAUAGCACUUGUGCCUCAGCCCCUCAC	0.301
